Published values collected from several papers.
Compare with care: the assays were run in different laboratories.
TMPRSS2: Transmembrane protease serine 2 (TMPRSS2, Homo sapiens, UniProt O15393)
Chain of UniProt O15393 (whole entry, looked up): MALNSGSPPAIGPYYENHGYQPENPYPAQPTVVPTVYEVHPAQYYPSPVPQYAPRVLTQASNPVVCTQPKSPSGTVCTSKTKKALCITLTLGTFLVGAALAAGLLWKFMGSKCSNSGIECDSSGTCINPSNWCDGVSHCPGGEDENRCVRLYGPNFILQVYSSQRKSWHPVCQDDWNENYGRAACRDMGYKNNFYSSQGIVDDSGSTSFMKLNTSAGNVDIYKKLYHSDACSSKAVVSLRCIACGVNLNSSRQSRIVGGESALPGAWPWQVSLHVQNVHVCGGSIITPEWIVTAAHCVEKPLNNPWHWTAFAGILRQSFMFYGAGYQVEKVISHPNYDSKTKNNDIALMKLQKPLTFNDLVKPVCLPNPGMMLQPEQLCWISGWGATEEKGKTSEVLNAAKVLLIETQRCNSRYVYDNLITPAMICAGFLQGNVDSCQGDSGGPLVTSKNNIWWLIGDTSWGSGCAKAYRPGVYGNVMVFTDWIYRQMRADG
PFF0160c: Dihydroorotate dehydrogenase (quinone), mitochondrial (PFF0160c, Plasmodium falciparum, UniProt Q08210)
Chain of UniProt Q08210 (whole entry, looked up): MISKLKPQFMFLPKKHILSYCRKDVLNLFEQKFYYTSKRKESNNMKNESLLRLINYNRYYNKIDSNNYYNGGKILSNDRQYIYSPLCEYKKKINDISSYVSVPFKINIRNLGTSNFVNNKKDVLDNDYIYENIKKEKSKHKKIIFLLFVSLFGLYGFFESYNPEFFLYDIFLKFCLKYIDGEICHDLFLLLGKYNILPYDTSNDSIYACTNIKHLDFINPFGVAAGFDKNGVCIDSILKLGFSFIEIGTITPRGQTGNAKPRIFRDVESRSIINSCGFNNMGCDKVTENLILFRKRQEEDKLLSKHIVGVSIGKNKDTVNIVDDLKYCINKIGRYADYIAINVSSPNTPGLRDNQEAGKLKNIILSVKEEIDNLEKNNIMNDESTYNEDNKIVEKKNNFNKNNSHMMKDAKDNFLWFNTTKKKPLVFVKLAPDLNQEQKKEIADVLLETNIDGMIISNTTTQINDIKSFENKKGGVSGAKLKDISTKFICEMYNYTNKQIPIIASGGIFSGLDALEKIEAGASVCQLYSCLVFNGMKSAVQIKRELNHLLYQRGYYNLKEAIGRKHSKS
Chain of UniProt O15197 (whole entry, looked up): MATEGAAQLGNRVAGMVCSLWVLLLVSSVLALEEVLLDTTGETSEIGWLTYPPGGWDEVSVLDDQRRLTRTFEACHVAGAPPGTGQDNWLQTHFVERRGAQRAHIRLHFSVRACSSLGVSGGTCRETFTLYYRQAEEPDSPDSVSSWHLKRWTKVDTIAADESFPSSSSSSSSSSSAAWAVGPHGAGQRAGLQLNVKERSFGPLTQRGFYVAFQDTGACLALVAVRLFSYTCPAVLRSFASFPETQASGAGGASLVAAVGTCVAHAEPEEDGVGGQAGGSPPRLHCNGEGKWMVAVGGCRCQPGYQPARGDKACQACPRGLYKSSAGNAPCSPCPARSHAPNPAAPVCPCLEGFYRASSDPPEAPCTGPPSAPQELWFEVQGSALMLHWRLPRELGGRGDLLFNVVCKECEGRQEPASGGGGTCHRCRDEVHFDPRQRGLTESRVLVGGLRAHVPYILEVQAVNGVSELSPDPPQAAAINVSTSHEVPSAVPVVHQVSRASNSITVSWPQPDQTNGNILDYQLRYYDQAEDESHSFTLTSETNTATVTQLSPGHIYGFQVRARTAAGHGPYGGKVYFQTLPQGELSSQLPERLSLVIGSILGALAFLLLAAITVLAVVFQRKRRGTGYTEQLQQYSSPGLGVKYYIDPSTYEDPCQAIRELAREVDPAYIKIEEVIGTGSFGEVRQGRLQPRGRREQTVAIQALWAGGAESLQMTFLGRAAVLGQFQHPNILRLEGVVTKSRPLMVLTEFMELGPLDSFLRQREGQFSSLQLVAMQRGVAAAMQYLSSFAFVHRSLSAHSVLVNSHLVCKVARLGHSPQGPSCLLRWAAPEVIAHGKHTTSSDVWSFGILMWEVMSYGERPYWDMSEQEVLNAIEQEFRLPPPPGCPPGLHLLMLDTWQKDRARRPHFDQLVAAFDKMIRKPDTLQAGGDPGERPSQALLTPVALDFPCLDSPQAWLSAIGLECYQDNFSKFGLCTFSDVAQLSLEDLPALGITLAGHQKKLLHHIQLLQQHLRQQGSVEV
Chain of UniProt P06493 (whole entry, looked up): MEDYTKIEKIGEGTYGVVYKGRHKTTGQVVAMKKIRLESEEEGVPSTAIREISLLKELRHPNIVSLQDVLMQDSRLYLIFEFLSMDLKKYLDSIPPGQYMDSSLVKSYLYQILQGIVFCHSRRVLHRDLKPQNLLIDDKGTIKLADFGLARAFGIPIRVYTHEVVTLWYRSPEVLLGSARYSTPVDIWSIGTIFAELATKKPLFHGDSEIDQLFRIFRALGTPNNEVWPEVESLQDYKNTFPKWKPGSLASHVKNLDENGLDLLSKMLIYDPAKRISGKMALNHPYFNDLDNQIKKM
Chain of UniProt P41143 (whole entry, looked up): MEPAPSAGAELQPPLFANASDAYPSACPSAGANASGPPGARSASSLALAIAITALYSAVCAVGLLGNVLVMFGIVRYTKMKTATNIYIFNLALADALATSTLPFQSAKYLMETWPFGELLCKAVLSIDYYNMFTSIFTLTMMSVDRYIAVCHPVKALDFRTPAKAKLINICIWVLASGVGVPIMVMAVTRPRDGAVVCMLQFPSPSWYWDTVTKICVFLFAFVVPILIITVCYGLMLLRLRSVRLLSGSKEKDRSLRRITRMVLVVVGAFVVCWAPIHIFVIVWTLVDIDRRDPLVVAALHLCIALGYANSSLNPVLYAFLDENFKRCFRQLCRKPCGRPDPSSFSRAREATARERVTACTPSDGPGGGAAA
Chain of UniProt P22303 (whole entry, looked up): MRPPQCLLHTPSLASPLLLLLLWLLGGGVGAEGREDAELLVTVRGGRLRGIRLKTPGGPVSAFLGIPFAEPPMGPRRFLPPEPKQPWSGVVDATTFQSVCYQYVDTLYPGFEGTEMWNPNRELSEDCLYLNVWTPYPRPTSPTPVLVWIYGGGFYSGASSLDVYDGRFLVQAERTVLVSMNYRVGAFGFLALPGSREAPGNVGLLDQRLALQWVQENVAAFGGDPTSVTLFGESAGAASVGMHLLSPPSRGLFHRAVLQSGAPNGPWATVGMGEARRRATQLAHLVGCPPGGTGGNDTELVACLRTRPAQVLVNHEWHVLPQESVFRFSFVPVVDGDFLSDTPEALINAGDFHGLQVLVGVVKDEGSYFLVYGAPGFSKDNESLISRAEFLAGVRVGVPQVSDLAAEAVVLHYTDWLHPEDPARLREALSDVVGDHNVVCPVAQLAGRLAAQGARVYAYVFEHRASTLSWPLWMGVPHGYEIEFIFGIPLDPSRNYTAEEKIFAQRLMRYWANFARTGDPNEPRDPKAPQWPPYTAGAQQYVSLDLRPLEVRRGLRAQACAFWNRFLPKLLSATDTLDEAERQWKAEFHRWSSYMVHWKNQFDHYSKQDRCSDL
Chain of UniProt Q13177 (whole entry, looked up): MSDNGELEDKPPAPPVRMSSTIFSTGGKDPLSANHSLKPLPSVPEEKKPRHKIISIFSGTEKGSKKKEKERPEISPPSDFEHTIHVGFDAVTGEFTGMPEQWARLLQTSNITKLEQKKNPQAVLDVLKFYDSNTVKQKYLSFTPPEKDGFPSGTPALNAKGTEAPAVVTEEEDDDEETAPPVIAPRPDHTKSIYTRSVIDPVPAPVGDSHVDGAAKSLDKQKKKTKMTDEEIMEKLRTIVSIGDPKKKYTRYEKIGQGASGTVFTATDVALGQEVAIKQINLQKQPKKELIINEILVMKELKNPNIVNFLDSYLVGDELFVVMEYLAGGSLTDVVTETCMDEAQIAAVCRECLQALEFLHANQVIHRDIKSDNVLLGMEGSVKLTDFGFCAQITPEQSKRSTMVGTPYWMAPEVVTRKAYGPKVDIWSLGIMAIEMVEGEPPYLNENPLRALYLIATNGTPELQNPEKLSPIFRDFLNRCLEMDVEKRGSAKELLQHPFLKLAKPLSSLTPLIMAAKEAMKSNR
Chain of UniProt Q9H930 (whole entry, unmodified, looked up): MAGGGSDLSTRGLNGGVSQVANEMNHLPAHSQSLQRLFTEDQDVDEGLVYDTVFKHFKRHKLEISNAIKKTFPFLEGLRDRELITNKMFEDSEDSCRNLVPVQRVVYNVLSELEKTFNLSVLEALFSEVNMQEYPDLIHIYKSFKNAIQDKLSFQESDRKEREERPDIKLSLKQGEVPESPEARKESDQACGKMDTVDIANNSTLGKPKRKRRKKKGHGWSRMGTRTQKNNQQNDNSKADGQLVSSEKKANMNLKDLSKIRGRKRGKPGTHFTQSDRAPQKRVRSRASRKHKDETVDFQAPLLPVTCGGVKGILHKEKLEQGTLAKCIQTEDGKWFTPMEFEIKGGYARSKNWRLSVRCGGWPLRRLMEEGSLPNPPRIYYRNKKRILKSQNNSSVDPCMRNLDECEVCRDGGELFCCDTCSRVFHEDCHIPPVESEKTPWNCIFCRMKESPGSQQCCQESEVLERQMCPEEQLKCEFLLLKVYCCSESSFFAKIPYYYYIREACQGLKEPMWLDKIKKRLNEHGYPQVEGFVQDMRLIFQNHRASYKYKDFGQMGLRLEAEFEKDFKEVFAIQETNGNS
Chain of UniProt P21554 (whole entry, looked up): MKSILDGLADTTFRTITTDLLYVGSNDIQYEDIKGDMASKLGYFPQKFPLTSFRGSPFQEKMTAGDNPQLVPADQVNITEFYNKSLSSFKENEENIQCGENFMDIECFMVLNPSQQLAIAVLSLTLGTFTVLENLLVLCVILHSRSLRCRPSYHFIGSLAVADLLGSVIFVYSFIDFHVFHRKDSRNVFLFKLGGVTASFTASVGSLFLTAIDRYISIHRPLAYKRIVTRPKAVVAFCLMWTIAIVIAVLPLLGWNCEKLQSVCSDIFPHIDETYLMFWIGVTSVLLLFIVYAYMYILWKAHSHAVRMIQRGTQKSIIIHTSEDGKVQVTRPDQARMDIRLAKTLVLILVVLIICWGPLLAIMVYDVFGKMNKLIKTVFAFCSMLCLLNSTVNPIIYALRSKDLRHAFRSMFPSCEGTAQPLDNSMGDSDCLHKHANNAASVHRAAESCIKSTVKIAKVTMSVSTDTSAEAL

The Emax of `C=CCCCn1c(O)c(N=NC(=O)c2ccccc2)c2ccccc21` is reported as 77.4% (Cannabinoid receptor 1 (CNR1, Homo sapiens, UniProt P21554); β-arrestin recruitment, agonist; HEK293).
`CC(=O)N[C@@H](CCC(N)=O)C(=O)N[C@@H](Cc1ccccc1)C(=O)N[C@@H](CCCNC(=N)N)C(=O)c1nc2ccccc2s1` — result for “activity vs control”: 22% (TMPRSS2; enzyme activity, inhibitor; 1 nM).
`C#Cc1n[nH]c2c(-c3cn([C@@H](C)c4ccccn4)c(=O)[nH]c3=O)cc(F)cc12` has an inhibition of 4.4% (Cyclin-dependent kinase 1, with cyclin B (CDK1, Homo sapiens, UniProt P06493); enzyme activity, inhibitor; 0.1 µM).
With `Cc1nn(C)cc1-c1nc2c(N3CCN(Cc4ccc(Cl)cc4)CC3)c(Cl)cnc2[nH]1` the remaining binding was 100% (Tyrosine-protein kinase ABL1, non-phosphorylated (ABL1, Homo sapiens, UniProt P00519, T315I); binding, competition with immobilised ligand; 1 µM).
For `CCN(CC)CCCC[C@H](NC(=O)[C@H](CC(C)C)NC(=O)[C@H](C)NC(=O)[C@H](Cc1ccccc1)NC(=O)c1ccc(C(C)(C)C)cc1)C(=O)N[C@@H](CO)C(=O)OC`, the ΔTm was 0.53 °C (SP140L (Homo sapiens, UniProt Q9H930); thermal stability, DSF; 25 µM).
With `COc1ccc(-n2ccnc2SCC(=O)Nc2cc(Cl)ccc2OC)c(OC)c1` the IC50 was 478 nM (PFF0160c; enzyme activity, inhibitor, absorbance).
For `COc1ncccc1-c1cnn2ccc(N3CCN(C(=O)OC(C)C)CC3)nc12`, the remaining binding was 38% (Ephrin type-B receptor 6 (EPHB6, Homo sapiens, UniProt O15197); binding, competition with immobilised ligand; 1 µM).
`N=C(N)NCCC[C@@H](NC(=O)[C@H](Cc1ccccc1)NC(=O)[C@H](CCC(N)=O)NC(=N)N)C(=O)c1nc2ccccc2s1` — result for “activity vs control”: 48% (TMPRSS2; enzyme activity, inhibitor; 1 nM).
`Nc1ncc(-c2nc(N3CCOCC3)nc(N3CCOCC3)n2)c(C(F)F)n1` gave a remaining binding of 58% (Tyrosine-protein kinase Tec (TEC, Homo sapiens, UniProt P42680); binding, competition with immobilised ligand; 10 µM).
With `Oc1cccc(N2C[C@H]3CC[C@@H](C2)N3CCCc2ccccc2)c1` the Emax was 67.7% (Delta-type opioid receptor (OPRD1, Homo sapiens, UniProt P41143); cAMP, agonist).
The IC50 of `O=C(Nc1cccc(CN2CCN(C(=O)c3cccc(Cl)c3)CC2)c1)c1cccs1` is reported as 1870 nM (PFF0160c; enzyme activity, inhibitor, absorbance).
Under “activity vs control”, `C[C@H](NC(=O)[C@H](CCC(N)=O)NC(=O)C[C@@H](N)CCCNC(=N)N)C(=O)N[C@@H](CCCNC(=N)N)C(=O)c1nc2ccccc2s1` is recorded as 94% (TMPRSS2; enzyme activity, inhibitor; 1 nM).
For `CCc1ccc(N2C(=O)/C(=C3/C(=O)N(C)c4ccc(Cl)cc43)NC2=S)cc1`, the inhibition was 18% (Acetylcholinesterase (ACHE, Homo sapiens, UniProt P22303); enzyme activity, inhibitor, Ellman; 50 nM).
Under “activity vs control”, `N=C(N)NCCCCC(=O)N[C@@H](CCC(N)=O)C(=O)N[C@@H](Cc1ccccc1)C(=O)N[C@@H](CCCNC(=N)N)C(=O)c1nc2ccccc2s1` is recorded as 32% (TMPRSS2; enzyme activity, inhibitor; 1 nM).
`[2H]c1c([2H])c([C@]2([2H])CCCN2C(=O)C(C)(C)Oc2ccc3cn[nH]c3c2)c([2H])c([2H])c1C([2H])([2H])[2H]` gave a remaining binding of 89% (Serine/threonine-protein kinase PAK 2 (PAK2, Homo sapiens, UniProt Q13177); binding, competition with immobilised ligand; 1 µM).

A few entries again:
Under “activity vs control”, `N=C(N)NCCCCC(=O)N[C@@H](CCC(N)=O)C(=O)N[C@@H](Cc1ccccc1)C(=O)N[C@@H](CCCNC(=N)N)C(=O)c1nc2ccccc2s1` is recorded as 32% (TMPRSS2; enzyme activity, inhibitor; 1 nM).
`[2H]c1c([2H])c([C@]2([2H])CCCN2C(=O)C(C)(C)Oc2ccc3cn[nH]c3c2)c([2H])c([2H])c1C([2H])([2H])[2H]` gave a remaining binding of 89% (Serine/threonine-protein kinase PAK 2 (PAK2, Homo sapiens, UniProt Q13177); binding, competition with immobilised ligand; 1 µM).
